Measurements from different studies.
Compare with care: the assays were run in different laboratories. Values joined by “and” are separate records of one study, mostly repeats; a detail may differ. pEC50, pIC50: −log10 of the molar value.
Cell line: HL-60

Structure (SMILES) | assay | conditions | how to read | quantity | value
COc1c(O)cc2oc3cc4c(c(O)c3c(=O)c2c1CCC(C)C)CC(O)O4 (centres unmarked) | cell growth or viability | 48 h |  | pIC50 | 5.16
C=C1[C@H](O)CC(=C/C=C2\CCC[C@]3(C)[C@@H]([C@@H](C)CCCCO)CC[C@@H]23)C[C@H]1O | cell differentiation, NBT reduction |  | baseline: compound over 1α,25-dihydroxyvitamin D3 | EC50 ratio | 1.5
[Ru+2].c1ccc(-c2cccc(-c3ccccn3)n2)nc1.c1cnc(-c2cnccn2)cn1.c1cnccn1 | cell growth or viability | dark |  | pIC50 | ~4.52 and 4.52
CC(C)(C)c1ccc2[c](c1)[Au-]1([S]c3ccccc3)[c]3cc(C(C)(C)C)ccc3-c3cncc-2[n+]31 |  | 10 µM, 72 h |  | cell proliferation | not toxic
C(=C/c1ccccc1)/c1ccccc1 | apoptosis, Hoechst nuclear staining | 24 h, 50% apoptosis induction |  | pEC50 | 4.31
CC(C)(C)c1ccc2[c](c1)[Au-]1([C]#Cc3ccccc3)[c]3cc(C(C)(C)C)ccc3-c3cncc-2[n+]31 |  | 10 µM, 72 h |  | cell proliferation | not toxic
[Ru+2].c1ccc(-c2cccc(-c3ccccn3)n2)nc1.c1ccc2nc(-c3ccc4ccccc4n3)ccc2c1.c1ccncc1 |  |  | baseline: dark IC50 over light IC50 | phototoxicity index | 2.8
CC1[C@H](O)CC(=C/C=C2\CCC[C@]3(C)[C@@H]([C@H](C)CCCCO)CC[C@@H]23)C[C@H]1O (some centres unmarked) | cell differentiation, NBT reduction |  | baseline: compound over 1α,25-dihydroxyvitamin D3 | EC50 ratio | 15
